# Published values pooled from the literature.
# Parts stem from different laboratories: compare values within a part only.

# Series 1
# Target: Histone acetyltransferase KAT6A, winged helix 2, GST fusion (KAT6A, Homo sapiens, UniProt Q92794, residues 85-181)
# Technique: protein binding microarray
# Molecule type: double-stranded DNA, one strand shown
# Matrix: in vitro
# Tested at: not given
# Setting: 8-mer, flanks averaged, mean of 2 arrays, mostly near background
# Reference: not given
# Reading: higher = stronger binding
# Target sequence (chain): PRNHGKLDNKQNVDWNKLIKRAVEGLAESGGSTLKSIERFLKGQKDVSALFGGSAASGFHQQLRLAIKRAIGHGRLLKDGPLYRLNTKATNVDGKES
Sequence,E-score
AGAGTGGA,-0.0919
AAACCCGT,-0.188
CTGGTGAC,0.017
ATCCTGTG,-0.183
CACTGTTA,-0.186
GGAGCGCA,0.0414
AGCGCTAC,-0.0351
CAGGGGTC,-0.0767
CGGGGAAG,0.0229

# Series 2
# Target: RNA binding protein fox-1 homolog 2, RRM domain, GST-SBP tag (RBFOX2, Homo sapiens, UniProt O43251-10, residues 100-194)
# Technique: RNA Bind-n-Seq
# Molecule type: RNA
# Matrix: in vitro
# Tested at: 365 nM
# Setting: natural RNA segment, single round, ends assumed
# Reference: no-protein control
# Reading: higher = stronger binding
# All sequences stand within: GGGAGUUCUACAGUCCGACGAUC … UGGAAUUCUCGGGUGCCAA
# Construct (chain): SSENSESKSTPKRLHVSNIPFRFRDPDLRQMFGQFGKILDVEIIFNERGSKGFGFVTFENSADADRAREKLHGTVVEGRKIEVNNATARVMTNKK
Sequence,RBNS enrichment (R)
UGGGACAGGCUUAGGGGAAAGAGCUUGUCCUAUCUCAGGAACAAAAUUAUAGGCUGUGGGCAGAGGGUCUGAAAGGUGGGCUUUGGGGUAGUGCCCAAGCCUGGUCGUGU,1.56
CUAAAAGAUUAUUUAAUUCCAGAUUGGAAAUGACAUUUUAGUUUAUCAGAUUGGUAACUUAUCGCCUGUUGUCCAGAUUGGCACGAACCUUUUCUUCCACUUAAUUAUUU,0.551
UGGGUUUUGUAGCAUUUUUAUUAAUAUGGUGACUUUUUAAAAUAAAAACAAACAAACGUUGUCCUAACUCUUGCAUAGACUUGACUGCCUAGGGUGAUGCCUUGCUUAUA,1.04
UCCCAGCAUUUUGGGAGGCUGAGGCAAGUGGAUAACUUGAGGUCAUGAGUUCGAAACCAGCCUGGCCAAAACAGUGAAACCCCGUCUCUACUAAAAAUACAAAAUUAGCC,0.945
AGGUGGGAGGGAGGAACACCGGUGCCUCGGUCACUCUGGGGGCAGUUUAGAUGCUGUGAAAUUAAACCUGUUCUAAGUGUACUUGUUUGAAUUAAUUGUAUUGUAAUAUU,0.657
CCAGGGCAGCCCCUGAGUCCACAUGCACACCUCAGCAGCCUAUAUUUAUUUGUUUCUGGUUUAGCCUCAAGGGCUGGAAGCUGGGCCUGUAUUGAAUAAACAGAAACCCA,0.886
UACAAAACAAUAACCCUUCUGGGGUUUCUUGUGGCGGUUGAAAUAGUCCCACAUGUGGUCAUCAGAAAAUAAGCCAUUCCUCAUACCAAUAUAGGAUCAGCUCCUUGACC,0.213
UGAGAUAACAUUUACAUUGUCAACCUUUAUUGACUUUGUUUUUACAAUAAAAAAUAUUUUACAACUUACUUUCUGUUCUCUGUAUAUUGUGACUUGAGGAUUUACCCCCU,0.414

# Series 3
# Target: Sal-like protein 4, full length isoform A (SALL4, Homo sapiens, UniProt Q9UJQ4, residues 1-1053)
# Chain of UniProt Q9UJQ4 (whole entry, looked up): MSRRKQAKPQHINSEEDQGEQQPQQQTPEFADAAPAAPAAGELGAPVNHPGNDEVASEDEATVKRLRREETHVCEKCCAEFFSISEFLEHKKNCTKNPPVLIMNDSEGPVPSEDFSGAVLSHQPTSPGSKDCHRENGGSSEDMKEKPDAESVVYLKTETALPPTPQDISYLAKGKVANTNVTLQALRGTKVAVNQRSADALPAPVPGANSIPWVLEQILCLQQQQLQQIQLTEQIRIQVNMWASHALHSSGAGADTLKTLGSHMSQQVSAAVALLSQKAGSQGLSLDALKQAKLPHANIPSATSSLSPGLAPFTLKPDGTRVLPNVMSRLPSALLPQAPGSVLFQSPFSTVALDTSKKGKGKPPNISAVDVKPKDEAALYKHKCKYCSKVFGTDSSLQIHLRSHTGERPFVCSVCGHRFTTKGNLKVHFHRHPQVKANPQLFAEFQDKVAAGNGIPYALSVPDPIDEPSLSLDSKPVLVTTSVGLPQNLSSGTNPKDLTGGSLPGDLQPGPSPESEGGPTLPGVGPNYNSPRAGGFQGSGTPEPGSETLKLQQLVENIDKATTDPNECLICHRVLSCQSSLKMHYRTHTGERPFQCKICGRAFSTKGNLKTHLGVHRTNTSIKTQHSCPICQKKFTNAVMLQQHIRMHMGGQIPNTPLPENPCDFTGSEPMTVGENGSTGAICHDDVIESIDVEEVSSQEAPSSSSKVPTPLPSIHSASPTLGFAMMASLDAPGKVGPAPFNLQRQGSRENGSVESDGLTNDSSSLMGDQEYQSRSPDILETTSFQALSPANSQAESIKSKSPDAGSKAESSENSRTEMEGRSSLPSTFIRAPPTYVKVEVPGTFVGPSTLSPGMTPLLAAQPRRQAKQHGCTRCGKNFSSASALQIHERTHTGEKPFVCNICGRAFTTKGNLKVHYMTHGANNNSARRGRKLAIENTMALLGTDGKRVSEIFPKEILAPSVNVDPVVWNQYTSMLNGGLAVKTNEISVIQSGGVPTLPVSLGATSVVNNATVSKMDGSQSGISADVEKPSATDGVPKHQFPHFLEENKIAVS
# Technique: universal PBM
# Molecule type: double-stranded DNA, one strand shown
# Matrix: in vitro
# Tested at: 600 nM
# Setting: 8-mer, flanks averaged, mean of replicates
# Reading: higher = stronger binding
Sequence,E-score
CTGCTTTC,-0.0402
GCGCGAAA,0.0392
CGCATCTA,0.0467
CTAGAAAG,0.0461
CCTAACAA,0.235
CTGTCTGC,-0.0996
CTAGAACA,0.0657
CGCATGAA,-0.0309

# Single results of other studies
Molecule,target,assay,system,conditions,scale,endpoint,value
"PhoQ, residues 284 288 289 292 302 303 SCEHLI","PhoP, residues 12 14 15 18 19 LHATL (Escherichia coli, UniProt P23836)","Sort-seq, item: YFP reporter",E. coli,"PhoQ-PhoP variant library, with: 10 µM Mg2+","reference: high Mg2+ state, higher = stronger signaling",fold induction,18.2
